Experimental data gathered from unrelated publications.
Every numbered part comes from another study and shows a few of its results, in no order.

Series 1 — method: protein-binding microarray; molecule type: double-stranded DNA, one strand shown; medium: in vitro; concentration: 2540 nM top; setting: 60-bp whole probe; added: salmon DNA 0.4 mg/ml; baseline: random background probes; reading: higher = stronger binding; shared flanks, not repeated: GCCTAGCAC … GTCTTGATTCGCTTGACGCTGCTG
Target: Interferon regulatory factor 3, full length, phosphomimetic (IRF3, Homo sapiens, UniProt Q14653, residues 1-427, S386D/S396D/S398D/S402D/T404D/S405D)
Sequence of UniProt Q14653 (whole entry, unmodified, looked up): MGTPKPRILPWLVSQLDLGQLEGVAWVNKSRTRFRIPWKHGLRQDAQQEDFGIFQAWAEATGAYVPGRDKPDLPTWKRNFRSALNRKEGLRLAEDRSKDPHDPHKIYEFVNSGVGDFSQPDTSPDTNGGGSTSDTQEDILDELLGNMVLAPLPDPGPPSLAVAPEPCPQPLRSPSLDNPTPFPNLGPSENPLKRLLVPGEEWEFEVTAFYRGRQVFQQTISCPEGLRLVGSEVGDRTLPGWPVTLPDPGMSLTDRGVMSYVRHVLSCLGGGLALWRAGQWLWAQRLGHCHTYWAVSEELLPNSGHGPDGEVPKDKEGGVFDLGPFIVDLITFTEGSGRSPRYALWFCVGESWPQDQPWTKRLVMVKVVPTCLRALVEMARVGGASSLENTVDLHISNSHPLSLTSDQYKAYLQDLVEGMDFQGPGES
| Strand | fitted relative affinity |
| --- | --- |
| TTAGGTTTCTGACTGGGTTAGTGCTAG | 1.76 z-score |
| AGATGTATGAGCCTCTGTTTGTGCTAG | -0.454 z-score |
| CTATATTAGGGAAGTGTGTTGTGCTAG | 0.427 z-score |
| CTAGGTTTCGGGTATCGGTTAGTGCTA | 4.43 z-score |
| TTAGGACTGGGACTGGATTAGTGCTAG | -0.711 z-score |
| TCACCTCTGGGATCCCAGACTGTGCTA | 0.311 z-score |
| TCACTTTTATTTTCAGTACTGTGCTAG | 3.24 z-score |

Series 2 — method: RNA Bind-n-Seq; molecule type: RNA; medium: in vitro; concentration: 200 nM; setting: whole 134-nt RNA, ends assumed; added: 150 mM LiCl; baseline: input library; reading: higher = stronger binding; library: 7-deaza-guanosine replaces G
Target: Fragile X messenger ribonucleoprotein 1, C-terminal low-complexity region (Fmr1, Mus musculus, UniProt P35922)
| Strand | log2 enrichment |
| --- | --- |
| GGGAGUUCUACAGUCCGACGAUCCUCAAGUCCUGUGCUACACAUCGUAUGUACCGAAUCGGAGGUGGAAAAAAAGGAAAGUAUUAUGUUACGCCGUUCGGAUCUGCACUUCCAUGGAAUUCUCGGGUGUCAAGG | -0.842 |
| GGGAGUUCUACAGUCCGACGAUCAGUCCUGUGCUACACAUCGUAUGUACCGAAUCAAACCCCCAAAUUUAAAUUUUUAAAAAAGUAUUAUGUUACGCCGUUCGGAUCUGCACUUGGAAUUCUCGGGUGUCAAGG | 0.303 |
| GGGAGUUCUACAGUCCGACGAUCACCAUGCAGGUGGGCAUCUUUGGCAAGUGGGGCAAGGGGGGGAUAGGGAGGGGGGUAACACUUUGGGAACAGGUGGUCCCAGGUCGUUUCUGGAAUUCUCGGGUGUCAAGG | 1.41 |
| GGGAGUUCUACAGUCCGACGAUCCUGUGCUACACAUCGUAUGUACCGAAUCGGGCCCCCCCGGGCCCCCCCGGCCCCCCCGGGGAAAGUAUUAUGUUACGCCGUUCGGAUCUGUGGAAUUCUCGGGUGUCAAGG | -0.283 |

Series 3 — method: competition protein-binding microarray; molecule type: double-stranded DNA, one strand shown; medium: in vitro; concentration: 2 µM; added: Cbf1 competitor, 0.05 µM; reading: higher = stronger binding
Target: Phosphate system positive regulatory protein PHO4, full length, GST-tagged (PHO4, Saccharomyces cerevisiae, UniProt P07270, residues 1-312)
Setting: whole 60-bp probe, lowest competitor level
Residues (chain): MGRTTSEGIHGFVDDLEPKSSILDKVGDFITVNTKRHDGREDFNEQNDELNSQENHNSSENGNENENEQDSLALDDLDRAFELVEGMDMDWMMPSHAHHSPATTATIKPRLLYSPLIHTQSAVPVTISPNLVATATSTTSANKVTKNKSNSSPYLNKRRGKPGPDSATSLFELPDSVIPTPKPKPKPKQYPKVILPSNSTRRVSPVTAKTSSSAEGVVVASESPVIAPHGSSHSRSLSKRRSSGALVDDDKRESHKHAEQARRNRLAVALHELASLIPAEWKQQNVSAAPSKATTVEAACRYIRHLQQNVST
| Strand | fluorescence intensity |
| --- | --- |
| CTAACGAAGGTTTGCAGGGTGGGTGACAAGCCAAGTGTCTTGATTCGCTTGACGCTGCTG | 4270 a.u. |
| TTGAGTAACTTTGGGCAGGTGACAGGTAAACCCCTTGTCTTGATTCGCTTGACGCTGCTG | 4260 a.u. |
| GTCTTGTCTCATTGCACTGTGGGTGTCCCCACTTCAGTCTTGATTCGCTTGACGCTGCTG | 5120 a.u. |
| TGCGCAACAACTTGTCACACCACTTTATGTCTAGAAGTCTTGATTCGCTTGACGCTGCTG | 4750 a.u. |
| AATCAGCTTATTCAGCTCGTGGAAGGTTGTCCAGTCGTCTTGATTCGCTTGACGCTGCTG | 7910 a.u. |
| CGGTCGGATGGAAAACACGTGACAAGAAAGTCCCCGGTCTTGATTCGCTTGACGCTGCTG | 14600 a.u. |
| CTAACGAAGGTTTGCCTGGTGGGTGACAAGCCAAGTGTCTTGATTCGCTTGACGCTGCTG | 4180 a.u. |
| TGTTCTTCGTAGAAATGCATGCAGAAAAATTTTGATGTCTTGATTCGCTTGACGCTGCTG | 6600 a.u. |
| GTTTCGCCAGTTTCACTCATGACAAGTCTGCCAGTTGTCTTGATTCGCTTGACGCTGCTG | 3300 a.u. |
| CAAGTTCCGGGGCGTCACATGGAAACAATGGCACTTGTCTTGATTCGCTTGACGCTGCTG | 6480 a.u. |

Single results of other studies
| Substance | target | test | test system | conditions | scale | measurement | result |
| --- | --- | --- | --- | --- | --- | --- | --- |
| PhoQ, residues 284 288 289 292 302 303 ASASEQ | PhoP, residues 12 14 15 18 19 VHSCL (Escherichia coli, UniProt P23836) | Sort-seq, measured: YFP reporter | E. coli | PhoQ-PhoP variant library, added: 10 µM Mg2+ | baseline: high Mg2+ state, higher = stronger signaling | fold induction | 1.31 |

Repeated from above (series 1):
| Strand | fitted relative affinity |
| --- | --- |
| CTAGGTTTCGGGTATCGGTTAGTGCTA | 4.43 z-score |
| CTATATTAGGGAAGTGTGTTGTGCTAG | 0.427 z-score |
| TTAGGACTGGGACTGGATTAGTGCTAG | -0.711 z-score |
